Experimental data gathered from unrelated publications.
Protocols differ between the studies behind these lines.
UniProt P08069, sequence (whole entry, looked up): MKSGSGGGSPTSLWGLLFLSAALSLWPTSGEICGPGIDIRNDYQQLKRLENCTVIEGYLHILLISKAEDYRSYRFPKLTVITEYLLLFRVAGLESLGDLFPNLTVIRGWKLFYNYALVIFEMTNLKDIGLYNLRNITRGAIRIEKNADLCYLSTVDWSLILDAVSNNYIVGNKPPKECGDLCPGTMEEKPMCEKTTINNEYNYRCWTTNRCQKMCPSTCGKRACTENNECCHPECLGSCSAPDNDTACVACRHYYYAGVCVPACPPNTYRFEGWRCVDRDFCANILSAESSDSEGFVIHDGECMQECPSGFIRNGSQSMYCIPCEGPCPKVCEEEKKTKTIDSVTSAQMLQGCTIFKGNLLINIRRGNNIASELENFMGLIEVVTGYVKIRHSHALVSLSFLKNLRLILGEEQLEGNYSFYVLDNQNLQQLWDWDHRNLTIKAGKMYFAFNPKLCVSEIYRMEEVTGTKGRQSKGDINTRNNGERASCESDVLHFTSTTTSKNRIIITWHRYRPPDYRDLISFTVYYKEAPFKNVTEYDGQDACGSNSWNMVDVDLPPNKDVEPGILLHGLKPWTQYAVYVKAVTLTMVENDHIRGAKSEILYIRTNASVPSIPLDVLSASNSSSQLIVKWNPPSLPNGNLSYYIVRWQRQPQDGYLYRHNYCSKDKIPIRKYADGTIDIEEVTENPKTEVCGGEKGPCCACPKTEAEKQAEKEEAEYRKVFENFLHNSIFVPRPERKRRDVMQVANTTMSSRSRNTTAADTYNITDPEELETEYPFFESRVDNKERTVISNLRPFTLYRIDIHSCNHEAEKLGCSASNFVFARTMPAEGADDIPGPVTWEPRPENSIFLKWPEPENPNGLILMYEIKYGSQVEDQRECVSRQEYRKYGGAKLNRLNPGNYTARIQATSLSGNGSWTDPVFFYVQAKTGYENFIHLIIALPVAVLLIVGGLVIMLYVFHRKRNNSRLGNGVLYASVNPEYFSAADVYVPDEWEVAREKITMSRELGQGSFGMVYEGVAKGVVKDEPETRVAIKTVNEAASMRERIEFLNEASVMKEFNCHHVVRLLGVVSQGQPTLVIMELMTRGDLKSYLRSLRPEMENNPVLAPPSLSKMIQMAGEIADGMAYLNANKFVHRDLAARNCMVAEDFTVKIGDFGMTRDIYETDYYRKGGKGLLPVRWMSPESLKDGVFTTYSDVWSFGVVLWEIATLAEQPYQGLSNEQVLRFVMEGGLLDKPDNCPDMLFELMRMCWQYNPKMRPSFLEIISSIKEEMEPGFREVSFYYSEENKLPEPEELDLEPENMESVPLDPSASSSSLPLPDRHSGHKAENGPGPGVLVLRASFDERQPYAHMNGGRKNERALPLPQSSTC
UniProt P53778, sequence (whole entry, looked up): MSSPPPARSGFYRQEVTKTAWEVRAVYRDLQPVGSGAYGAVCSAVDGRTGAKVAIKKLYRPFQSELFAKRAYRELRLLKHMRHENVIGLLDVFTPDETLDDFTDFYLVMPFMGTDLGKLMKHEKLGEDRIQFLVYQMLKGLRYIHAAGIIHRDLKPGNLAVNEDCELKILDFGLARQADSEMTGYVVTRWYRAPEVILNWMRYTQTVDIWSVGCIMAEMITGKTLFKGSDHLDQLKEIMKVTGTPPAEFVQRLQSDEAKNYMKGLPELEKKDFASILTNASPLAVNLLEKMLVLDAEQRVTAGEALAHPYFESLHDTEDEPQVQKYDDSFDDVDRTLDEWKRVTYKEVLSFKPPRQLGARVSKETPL
UniProt O75460, sequence (whole entry, looked up): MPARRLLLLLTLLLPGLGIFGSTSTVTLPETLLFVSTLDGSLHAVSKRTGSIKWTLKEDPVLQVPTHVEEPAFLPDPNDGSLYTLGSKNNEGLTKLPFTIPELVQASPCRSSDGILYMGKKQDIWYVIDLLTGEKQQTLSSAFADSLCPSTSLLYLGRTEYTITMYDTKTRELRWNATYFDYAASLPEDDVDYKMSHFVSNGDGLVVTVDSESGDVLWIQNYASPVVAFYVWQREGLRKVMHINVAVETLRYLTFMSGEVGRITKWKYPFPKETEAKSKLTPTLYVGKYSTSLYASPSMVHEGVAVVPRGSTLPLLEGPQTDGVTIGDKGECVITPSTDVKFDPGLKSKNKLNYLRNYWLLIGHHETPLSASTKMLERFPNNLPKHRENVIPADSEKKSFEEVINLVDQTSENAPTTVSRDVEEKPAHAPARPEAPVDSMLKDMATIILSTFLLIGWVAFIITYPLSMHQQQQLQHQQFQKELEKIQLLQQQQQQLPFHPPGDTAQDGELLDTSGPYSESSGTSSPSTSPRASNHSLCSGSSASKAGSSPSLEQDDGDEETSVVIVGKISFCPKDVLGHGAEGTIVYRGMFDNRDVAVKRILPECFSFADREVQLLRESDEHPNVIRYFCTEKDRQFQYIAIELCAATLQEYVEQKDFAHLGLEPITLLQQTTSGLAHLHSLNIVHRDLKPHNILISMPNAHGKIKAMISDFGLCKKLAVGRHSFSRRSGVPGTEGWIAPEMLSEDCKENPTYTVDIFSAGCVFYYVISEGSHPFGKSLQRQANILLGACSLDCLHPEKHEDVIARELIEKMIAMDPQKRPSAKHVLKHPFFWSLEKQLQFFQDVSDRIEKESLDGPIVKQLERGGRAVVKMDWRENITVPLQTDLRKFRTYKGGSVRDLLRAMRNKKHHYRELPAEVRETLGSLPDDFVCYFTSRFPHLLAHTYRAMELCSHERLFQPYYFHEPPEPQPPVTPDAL

For `COc1cccc(OC)c1-c1cc(C(=O)NC2(C(=O)O)C3CC4CC(C3)CC2C4)nn1-c1ccc(C(=O)N(C)CCCN(C)CCCN(C)C(=O)CN2CCN(CC(=O)[O-])CCN(CC(=O)[O-])CCN(CC(=O)[O-])CC2)cc1C(C)C.[177Lu+3]` (centres unmarked), the tracer uptake was 0.1 %ID/g (HT-29 tumour model; host not given, blood; 72 h, tumour-bearing).
`Nc1ccn([C@@H]2O[C@H](CO)[C@@H](O)C2(F)F)c(=O)n1` has a viability of 90.3% (MDA-MB-231; cell growth or viability, MTT; 0.078125 µg/mL, 48 h).
For `COc1cccc(-c2n[nH]c(SCc3ccccn3)n2)c1OC`, the concentration was 1150 ng/mL (female Sprague-Dawley rat, plasma; oral, 30 mg/kg, 8 h, single dose).
For `COc1cccc(OC)c1-c1cc(C(=O)NC2(C(=O)O)C3CC4CC(C3)CC2C4)nn1-c1ccc(C(=O)N(C)CCCN(C)CCCN(C)C(=O)CN2CCN(CC(=O)[O-])CCN(CC(=O)[O-])CCN(CC(=O)[O-])CC2)cc1C(C)C.[177Lu+3]` (centres unmarked), the tracer uptake was 6 %ID/g (HT-29 tumour model; host not given, blood; intravenous, 4 h, tumour-bearing).
The CL/F of `CCN1CCN(Cc2ccc(NC(=O)c3ccc(C)c(NC(=O)c4cncc(-c5cccs5)c4)c3)cc2C(F)(F)F)CC1` is reported as 143 mL/min/kg (mouse, plasma; intraperitoneal, 15 mg/kg, single dose).
For `C=CC(=O)N1CCC(COCC(=O)N2CCN(c3nc(-c4cnc(N)nc4C(F)F)nc(N4CCOC[C@@H]4C)n3)CC2)CC1`, the remaining binding was 100% (ERN1 (Homo sapiens, UniProt O75460); binding, competition with immobilised ligand; 1 µM).
For `O=C(c1ccc(F)cc1)C1CCN(CCn2c(=O)[nH]c3ccccc3c2=O)CC1`, the compound remaining was 66.5% (metabolic stability, mass spectrometry; human, liver microsomes; 15 min).
`NCc1cc2c(cc1F)C(=O)N(C1CCC(=O)NC1=O)C2` (centres unmarked) has a concentration of 0.55 ng/mL (male cynomolgus monkey, plasma; oral, 0.3 mg/kg, 4 h).
With `CNc1ncc2c(/C=C/C(=O)N3CCC(OC)CC3)nn(Cc3cccc(C(F)(F)F)c3)c2n1` the remaining activity was 95% (MAPK12 (Homo sapiens, UniProt P53778); enzyme activity, inhibitor, radiometric; 1 µM).
For `COc1cc(-c2cncc3c2CN(C)Cc2cc(N4CCNCC4)ccc2-3)cc(OC)c1OC`, the remaining activity was 93% (IGF1R (Homo sapiens, UniProt P08069); enzyme activity, inhibitor; 1 µM).
For `O=C1CC[C@H](N2Cc3cc(N4CCN(CC5CCN(c6ccc([C@@H]7c8ccc(O)cc8CC[C@@H]7c7ccccc7)cc6)CC5)CC4)ccc3C2=O)C(=O)N1`, the AUC(0-t) was 5740 ng·h/mL (male Sprague-Dawley rat, plasma; intravenous, 5 mg/kg, fed).

For quick reference, copied from above:
For `C=CC(=O)N1CCC(COCC(=O)N2CCN(c3nc(-c4cnc(N)nc4C(F)F)nc(N4CCOC[C@@H]4C)n3)CC2)CC1`, the remaining binding was 100% (ERN1 (Homo sapiens, UniProt O75460); binding, competition with immobilised ligand; 1 µM).
